# Experimental data gathered from unrelated publications.
# ± marks the error that the study gave. Where no end group is shown, it is not given here. The star is where a group is joined.
# lasR: Transcriptional activator protein LasR (lasR, Pseudomonas aeruginosa, UniProt P25084)
# Kelch domain-containing protein 2: Kelch domain-containing protein 2 (UniProt Q9Y2U9)
# Chain of UniProt Q9Y2U9 (whole entry, looked up): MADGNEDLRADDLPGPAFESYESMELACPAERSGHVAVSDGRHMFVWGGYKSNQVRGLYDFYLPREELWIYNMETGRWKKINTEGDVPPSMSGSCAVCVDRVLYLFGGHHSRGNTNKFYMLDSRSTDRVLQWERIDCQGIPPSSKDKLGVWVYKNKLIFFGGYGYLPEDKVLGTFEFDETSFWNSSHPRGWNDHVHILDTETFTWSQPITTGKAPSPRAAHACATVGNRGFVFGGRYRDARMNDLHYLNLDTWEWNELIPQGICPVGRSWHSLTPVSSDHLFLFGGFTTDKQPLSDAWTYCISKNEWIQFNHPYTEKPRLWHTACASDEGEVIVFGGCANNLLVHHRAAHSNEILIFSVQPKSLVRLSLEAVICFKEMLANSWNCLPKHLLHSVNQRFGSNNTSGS
# ESR2: Estrogen receptor beta (ESR2, Homo sapiens, UniProt Q92731)
# Chain of UniProt Q92731 (whole entry, looked up): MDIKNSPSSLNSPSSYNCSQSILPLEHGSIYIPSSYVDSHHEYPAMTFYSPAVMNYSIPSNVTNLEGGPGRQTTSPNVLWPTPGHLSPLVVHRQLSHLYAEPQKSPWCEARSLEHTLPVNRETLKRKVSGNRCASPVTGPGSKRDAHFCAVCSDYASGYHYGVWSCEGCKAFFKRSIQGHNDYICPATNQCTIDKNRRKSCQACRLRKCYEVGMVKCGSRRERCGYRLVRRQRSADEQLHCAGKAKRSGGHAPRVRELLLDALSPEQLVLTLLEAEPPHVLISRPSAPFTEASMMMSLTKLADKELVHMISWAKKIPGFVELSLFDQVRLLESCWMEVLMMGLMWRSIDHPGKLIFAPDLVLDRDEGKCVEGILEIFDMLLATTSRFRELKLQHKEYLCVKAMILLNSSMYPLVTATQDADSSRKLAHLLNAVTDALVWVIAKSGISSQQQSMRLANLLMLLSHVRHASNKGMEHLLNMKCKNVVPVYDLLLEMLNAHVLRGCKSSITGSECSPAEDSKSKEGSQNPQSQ
# ESR1: Estrogen receptor (ESR1, Homo sapiens, UniProt P03372)
# Chain of UniProt P03372 (whole entry, looked up): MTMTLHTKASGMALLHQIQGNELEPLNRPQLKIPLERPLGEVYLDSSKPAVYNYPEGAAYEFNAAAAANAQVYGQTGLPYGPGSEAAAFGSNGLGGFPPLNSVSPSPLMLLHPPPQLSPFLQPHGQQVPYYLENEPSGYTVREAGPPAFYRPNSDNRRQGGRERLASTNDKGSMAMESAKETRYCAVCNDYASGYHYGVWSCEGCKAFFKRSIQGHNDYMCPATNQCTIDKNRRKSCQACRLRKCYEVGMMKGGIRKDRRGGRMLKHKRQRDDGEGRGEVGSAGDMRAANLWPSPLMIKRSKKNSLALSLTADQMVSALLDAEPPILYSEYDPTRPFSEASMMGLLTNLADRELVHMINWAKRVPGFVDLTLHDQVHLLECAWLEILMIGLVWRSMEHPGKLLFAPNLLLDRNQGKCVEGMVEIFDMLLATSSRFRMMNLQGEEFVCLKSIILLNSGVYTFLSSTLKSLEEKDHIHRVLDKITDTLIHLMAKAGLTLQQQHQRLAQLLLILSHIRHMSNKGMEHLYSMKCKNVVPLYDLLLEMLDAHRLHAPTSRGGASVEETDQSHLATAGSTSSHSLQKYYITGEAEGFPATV
# Chain of UniProt P03962 (whole entry, unmodified, looked up): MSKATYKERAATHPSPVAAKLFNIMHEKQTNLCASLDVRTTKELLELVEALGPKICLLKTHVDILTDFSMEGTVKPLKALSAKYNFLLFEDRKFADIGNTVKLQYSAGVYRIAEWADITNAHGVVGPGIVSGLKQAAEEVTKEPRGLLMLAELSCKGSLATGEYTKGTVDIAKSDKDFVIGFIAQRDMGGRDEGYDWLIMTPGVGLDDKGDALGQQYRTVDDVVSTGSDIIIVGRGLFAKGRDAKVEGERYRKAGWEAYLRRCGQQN
# Chain of UniProt P14902 (whole entry, looked up): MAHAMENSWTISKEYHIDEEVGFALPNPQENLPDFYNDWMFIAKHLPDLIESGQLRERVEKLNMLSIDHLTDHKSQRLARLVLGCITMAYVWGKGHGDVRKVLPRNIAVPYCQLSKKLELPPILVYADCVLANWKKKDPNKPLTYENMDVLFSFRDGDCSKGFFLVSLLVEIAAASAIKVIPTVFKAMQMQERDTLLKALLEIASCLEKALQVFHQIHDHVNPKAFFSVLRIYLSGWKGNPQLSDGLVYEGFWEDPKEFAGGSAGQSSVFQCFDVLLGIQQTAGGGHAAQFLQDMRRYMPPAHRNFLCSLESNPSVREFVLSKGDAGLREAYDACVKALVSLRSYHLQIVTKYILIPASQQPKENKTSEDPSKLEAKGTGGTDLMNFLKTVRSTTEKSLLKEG
# Chain of UniProt P07164 (whole entry, unmodified, looked up): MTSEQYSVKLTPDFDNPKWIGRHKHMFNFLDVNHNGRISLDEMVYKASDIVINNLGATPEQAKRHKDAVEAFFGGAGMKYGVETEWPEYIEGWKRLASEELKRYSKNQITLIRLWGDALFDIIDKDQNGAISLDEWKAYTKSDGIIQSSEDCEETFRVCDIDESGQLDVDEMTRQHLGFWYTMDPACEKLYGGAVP
# Chain of UniProt O88703 (whole entry, unmodified, looked up): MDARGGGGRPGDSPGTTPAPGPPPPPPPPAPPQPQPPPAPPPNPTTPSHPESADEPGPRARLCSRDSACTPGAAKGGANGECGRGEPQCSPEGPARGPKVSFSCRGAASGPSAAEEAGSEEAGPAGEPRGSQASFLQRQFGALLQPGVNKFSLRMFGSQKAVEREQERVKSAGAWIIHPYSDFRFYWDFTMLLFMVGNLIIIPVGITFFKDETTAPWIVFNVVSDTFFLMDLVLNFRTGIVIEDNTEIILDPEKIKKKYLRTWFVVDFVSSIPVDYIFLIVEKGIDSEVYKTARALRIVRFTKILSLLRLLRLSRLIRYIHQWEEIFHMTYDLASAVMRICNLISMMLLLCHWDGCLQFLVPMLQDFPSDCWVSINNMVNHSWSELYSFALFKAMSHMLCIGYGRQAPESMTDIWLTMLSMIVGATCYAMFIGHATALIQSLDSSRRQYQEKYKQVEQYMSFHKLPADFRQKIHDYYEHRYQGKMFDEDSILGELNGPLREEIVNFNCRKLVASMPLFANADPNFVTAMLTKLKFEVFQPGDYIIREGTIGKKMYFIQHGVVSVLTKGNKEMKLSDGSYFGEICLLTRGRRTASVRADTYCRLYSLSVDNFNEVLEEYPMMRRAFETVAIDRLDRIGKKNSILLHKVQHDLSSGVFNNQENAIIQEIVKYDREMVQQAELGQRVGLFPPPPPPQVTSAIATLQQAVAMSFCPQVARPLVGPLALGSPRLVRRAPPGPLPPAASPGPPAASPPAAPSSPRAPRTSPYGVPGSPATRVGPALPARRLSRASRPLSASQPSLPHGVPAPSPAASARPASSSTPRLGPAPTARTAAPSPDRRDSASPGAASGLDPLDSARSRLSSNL
# Chain of UniProt P0A6K3 (whole entry, looked up): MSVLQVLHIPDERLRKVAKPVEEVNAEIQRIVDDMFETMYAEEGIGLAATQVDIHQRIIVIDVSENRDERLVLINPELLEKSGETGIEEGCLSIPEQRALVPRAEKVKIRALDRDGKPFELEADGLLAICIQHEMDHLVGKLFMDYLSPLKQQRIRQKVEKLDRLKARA
Substance,target,test,system,setting,scale,endpoint,result
COc1cc2c(cc1OC)C(=O)C(CC1CCN(Cc3ccccc3)CC1)C2 (centres unmarked),"CES1 (Homo sapiens, UniProt P23141)",irreversible inhibitor,,"5× IC50 or 200 µM, 1 h, preincubation then inhibitor removal, together with: o-nitrophenyl acetate substrate",,remaining activity,0%
O=C(Cc1ccc(-c2ccccc2)cc1)N[C@H]1CCSC1=O,lasR,"reporter gene, agonist",PAO1 MW1 pUM15,"10 µM, together with: OdDHL",,activation,> 20%
DDFFVGRVGG,Kelch domain-containing protein 2,native mass spectrometry,"peptide, 200 mM ammonium acetate","20 µM Kelch domain-containing protein 2, pH 7",reference: total Kelch domain-containing protein 2 signal,fraction of protein bound,0.8%
NC(=O)[C@@H]1CCCN1C(=O)C1(NC(=O)c2nn(Cc3ccc(F)cc3)c3ccccc23)CC1,"CNR2 (Homo sapiens, UniProt P34972)","calcium mobilization, agonist",CHO-K1 expressing Gαq16,,"reference: CP55,940 maximum",Emax,46 ± 6%
"Ac-LDEVD-pNA (N-acetyl, C-pNA; pNA = O=[N+]([O-])c1ccc(N*)cc1)","Caspase-7 (CASP7, Homo sapiens, UniProt P55210)","substrate hydrolysis, substrate, colorimetric",,pH 7.5,,kcat/Km,16700 ± 1670 M⁻¹ s⁻¹
CC12CC3CC1(C)C1(C)CC3(N)CC21C.Cl,"Glutamate NMDA receptor; Grin1/Grin2a (Grin1/Grin2a, Rattus norvegicus, UniProt P35439+Q00959)","NMDA current unblock, whole-cell patch clamp",tsA201 cells,"10 µM, holding potential -60 mV, together with: 100 µM NMDA plus 10 µM glycine",,current recovery after washout,94.9 ± 2.2%
COc1ccc(Oc2ccc(C(=O)N[C@H](CN3CCN(c4cccc(O)c4)[C@@H](C)C3)C(C)C)cc2)cc1,"OPRM1 (Homo sapiens, UniProt P35372)",antagonist,CHO,together with: DAMGO,,Ke,17 ± 5 nM
c1ccc([C@H]2CO2)cc1,"Epoxide hydrolase 1 (Solanum tuberosum, UniProt Q41415)","substrate, tryptophan fluorescence",,(S)-enantiomer,,apparent Kd,410 ± 90 µM
Oc1ccc(-c2cc(Br)c(-c3ccc(O)c(Cl)c3)[se]2)cc1Cl,ESR2,antagonist,HEK293T,"highest tested concentration, 24 h, together with: estradiol 10 nM",reference: estradiol alone,efficacy,125 ± 20%
GGNWTT,"UDP-glucose:protein N-beta-glucosyltransferase (Actinobacillus pleuropneumoniae serotype 5b, UniProt A3N2T3, D215R/Q469A)",substrate,peptide,"15 min, pH 8.0, 37 °C, D215R mutant, together with: UDP-Glc 100 mM",,kcat/Km,30 M⁻¹ s⁻¹
Cl.NCCc1ccc(S(=O)(=O)F)cc1,"Serine protease hepsin (Hpn, Mus musculus, UniProt O35453)",,mouse cells expressing hepsin,"concentration not given, 30 min, serum-free",,pericellular protease activity,inhibited
Nc1nnc(S)s1,"Peptide deformylase (def, Escherichia coli, UniProt P0A6K3)",,,"500 µM, over 2 days, pH 7.0, stock in 50 mM potassium phosphate",reference: control,remaining activity,103%
C[C@](O)(Cn1ccc2cc(F)ccc21)C(=O)Nc1ccc(C#N)c(C(F)(F)F)c1,"NR3C1 (Homo sapiens, UniProt P04150)","transactivation, antagonist",HEK293,together with: dexamethasone,,IC50?,~10 µM
Cc1cc(-c2c[se]cc2-c2ccc(O)c(C)c2)ccc1O,ESR1,antagonist,HEK293T,"highest tested concentration, together with: estradiol 10 nM",reference: estradiol alone,efficacy,46 ± 9%
CSCC[C@H](NC=O)C(=O)N[C@@H](CC(C)C)C(=O)N[C@@H](Cc1ccccc1)C(=O)O,"Slc15a1 (Mus musculus, UniProt Q9JIP7)",intestinal transport,"wild-type mice, jejunum, in situ perfusion","0.1 µM to 7.5 mM, pH 6.5, together with: 100 mM Phe",,K0.5,1.6 ± 0.4 mM
Oc1ccc(Cl)cc1-c1cc(Cl)c(Cl)c(Cl)c1Cl,"Aequorin-1 (Aequorea victoria, UniProt P07164, C152S/C159S/C187S)","aequorin bioluminescence, inhibitor",,"2 h, together with: coelenterazine",,detection limit,0.033 µM
cAMP,"Potassium/sodium hyperpolarization-activated cyclic nucleotide-gated channel 2, C-terminal region (Hcn2, Mus musculus, UniProt O88703, R635A)",isothermal titration calorimetry,,"R635A, high-affinity site",,stoichiometry,0.35 ± 0.02
CCc1c2c(nc3ccc(O)cc13)-c1cc3c(c(=O)n1C2)COC(=O)[C@]3(O)CC,"UGT1A9 (Homo sapiens, UniProt O60656)",substrate,,"pH 7.4, 37 °C",,Vmax,73.1 pmol/mg/min
O=c1c2ccccc2nc(/C=C/c2cccnc2)n1Cc1ccccc1,"rabbit myokinase, pyruvate kinase, lactate dehydrogenase","coupled enzyme activity, promiscuity counterscreen",,90 min preincubation,,lowest inhibitory concentration,> 12.5 µM
CSCC[C@H](NC(C)=O)C(=O)N[C@@H](C)C(=O)N[C@@H](C)C(=O)N[C@H](C(=O)N[C@@H](C)C(=O)NCC(=O)N[C@@H](CC(C)C)C(=O)N[C@@H](Cc1ccc(O)cc1)C(=O)NCC(=O)N[C@@H](CC(C)C)C(=O)NCC(=O)N[C@@H](CCCCN)C(=O)N[C@@H](CCCCN)C(=O)N[C@@H](CCCNC(=N)N)C(=O)N[C@@H](CCC(N)=O)C(=O)N[C@@H](Cc1c[nH]cn1)C(=O)N[C@@H](CCCNC(=N)N)C(=O)N[C@@H](CCCCN)C(=O)N[C@@H](CCCCN)C(=O)N[C@@H](CCC(N)=O)C(N)=O)C(C)C,"Kcnma1 (Mus musculus, UniProt Q08460)","blocker, patch clamp",,"3 µM, prepulse -80 mV, test pulse 200 mV, together with: high Ca2+",reference: before block,relative current amplitude,~1
Nc1cccc2c1CN(C1CCC(=O)NC1=O)C2=O (centres unmarked),"IDO1 (Homo sapiens, UniProt P14902)","inhibitor, western blot",HeLa,"1 µM, 2 h pretreatment, then 24 h, together with: IFN-γ 5 ng/mL plus degrader 5 µM",,IDO1 degradation,inhibited
Cc1cc(O)ccc1-c1cc(Br)c(-c2ccc(O)cc2C)[se]1,ESR1,antagonist,HEK293T,"highest tested concentration, together with: estradiol 10 nM",reference: estradiol alone,efficacy,93 ± 11%
NWFDRSHTLFHS,HIV-1 neutralising antibody 4E10,"phage binding, M13 phage ELISA",peptide,concentration not given,lower = stronger binding,binding titer,2e+08 M13/mL
Oc1ccc(-c2ccc(-c3ccc(O)cc3)[se]2)cc1,ESR2,antagonist,HEK293T,"highest tested concentration, 24 h, together with: estradiol 10 nM",reference: estradiol alone,efficacy,35 ± 4%
Oc1ccc(I)cc1,"PRXC1A (Armoracia rusticana, UniProt P00433)","luminol chemiluminescence, enhancer",,"200 µM, pH 9",reference: no compound,enhancement factor,~40
MKVAVLGAAGG,Kelch domain-containing protein 2,native mass spectrometry,"peptide, 200 mM ammonium acetate","20 µM Kelch domain-containing protein 2, pH 7",reference: total Kelch domain-containing protein 2 signal,fraction of protein bound,0.9%
c1cnc2cc3c(cc2n1)[C@@H]1CNC[C@H]3C1,"Chrnb2/Chrna6 (Rattus norvegicus, UniProt P12390+P43143, L273S/L280S/L348M/R364A/R365A/R367A)","ion current, agonist",,"concentration not given, rat receptor, unit not given",reference: acetylcholine maximum current,efficacy,0.33 ± 0.02
TNDAVIKVIGVGGGG,Kelch domain-containing protein 2,native mass spectrometry,"peptide, 200 mM ammonium acetate","20 µM Kelch domain-containing protein 2, pH 7",reference: total Kelch domain-containing protein 2 signal,fraction of protein bound,0.6%
"ERMLFEW (disulfide (positions not given here)) (cyclic, disulfide)",HIV-1 neutralising antibody 4E10,"phage binding, M13 phage ELISA",,concentration not given,lower = stronger binding,binding titer,8.6e+06 M13/mL
O=[PH](O)O,"Orotidine 5'-phosphate decarboxylase (Saccharomyces cerevisiae S288c, UniProt P03962, D37G)","decarboxylation of FO, activator",,"concentration not given, D37G variant",reference: wild type,increase in ΔG activation,< 1 kcal/mol
Cc1cc(O)ccc1-c1ccc(-c2ccc(O)cc2C)[se]1,ESR2,antagonist,HEK293T,"highest tested concentration, 24 h, together with: estradiol 10 nM",reference: estradiol alone,efficacy,50 ± 11%
CCCCCCCCCCCCCC(=O)O[C@@H]1[C@@H](C)[C@@]2(O)[C@@H](C=C(CO)C[C@]3(O)C(=O)C(C)=C[C@@H]23)[C@@H]2C(C)(C)[C@]12OC(C)=O,"Adora2b (Rattus norvegicus, UniProt P29276)",agonist-induced cAMP accumulation,H9c2,40 min pretreatment,,concentration for maximal enhancement,~10 nM
CCCN(CCc1ccc(O)cc1)C(=O)[C@@H](C)c1cccc(C(=O)c2ccccc2)c1,"Luciferin 4-monooxygenase (Photinus pyralis, UniProt P08659)","enzyme activity, counter-",C3H10T1/2 cell lysate,concentration not given,,luciferase inhibition,no effect
HPQFEKGG,Kelch domain-containing protein 2,native mass spectrometry,"peptide, 200 mM ammonium acetate","20 µM Kelch domain-containing protein 2, pH 7",reference: total Kelch domain-containing protein 2 signal,fraction of protein bound,1.5%
CC(C)[C@@H](CN1CCN(c2cccc(O)c2)[C@@H](C)C1)NC(=O)c1ccc(Oc2cccc(F)c2)cc1,"OPRK1 (Homo sapiens, UniProt P41145)",antagonist,CHO,together with: U69593,,Ke,1.48 ± 0.51 nM
CC[C@H](C)[C@H](NC(=O)[C@@H]1CSSC[C@@H]2NC(=O)[C@H]([C@@H](C)O)NC(=O)[C@H](C(C)C)NC(=O)CNC(=O)[C@H](CC(N)=O)NC(=O)[C@@H](NC(=O)[C@@H]3CCCN3C(=O)[C@H](CC(N)=O)NC(=O)[C@H](CC(N)=O)NC(=O)[C@H](CC(C)C)NC(=O)[C@H](Cc3ccc(O)cc3)NC(=O)[C@H](CCCCN)NC(=O)[C@H](CO)NC(=O)[C@@H](N)CC(N)=O)CSSC[C@H](NC(=O)[C@H](CCCNC(=N)N)NC(=O)[C@H](Cc3ccc(O)cc3)NC(=O)CNC(=O)[C@H](CO)NC(=O)[C@@H]3CCCN3C2=O)C(=O)N[C@@H](CO)C(=O)N[C@@H]([C@@H](C)CC)C(=O)N[C@@H](C(C)C)C(=O)N[C@@H](CC(=O)O)C(=O)N[C@@H](CCCCN)C(=O)N[C@@H](CCC(N)=O)C(=O)N1)C(=O)N[C@@H](CCCCN)C(=O)N[C@@H](CCCCN)C(=O)N[C@@H](CCC(=O)O)C(=O)O,"Trpv1 (Mus musculus, UniProt Q704Y3, E571A)","agonist, outside-out patch",,"300 µM, before desensitisation",,single-channel conductance,154 ± 10.8 pS
cyclo(GLWFGPRL) (cyclic),"diapause hormone receptor (Helicoverpa zea, UniProt S5LVZ5)","receptor activation, antagonist, aequorin luminescence",CHO-K1 expressing receptor,"1 µM, 30 min preincubation, together with: model ligand at 1 µM",reference: model ligand alone,antagonist activity,18.5%
O=C(CCc1ccccc1)NC1CCOC1=O (centres unmarked),lasR,"reporter gene, agonist",Escherichia coli JLD271/pJN105L/pSC11,100 µM,reference: OdDHL 100 µM,activation,53%

# Repeated from above:
Substance,target,test,system,setting,scale,endpoint,result
COc1ccc(Oc2ccc(C(=O)N[C@H](CN3CCN(c4cccc(O)c4)[C@@H](C)C3)C(C)C)cc2)cc1,"OPRM1 (Homo sapiens, UniProt P35372)",antagonist,CHO,together with: DAMGO,,Ke,17 ± 5 nM
"Ac-LDEVD-pNA (N-acetyl, C-pNA; pNA = O=[N+]([O-])c1ccc(N*)cc1)","Caspase-7 (CASP7, Homo sapiens, UniProt P55210)","substrate hydrolysis, substrate, colorimetric",,pH 7.5,,kcat/Km,16700 ± 1670 M⁻¹ s⁻¹
CCCN(CCc1ccc(O)cc1)C(=O)[C@@H](C)c1cccc(C(=O)c2ccccc2)c1,"Luciferin 4-monooxygenase (Photinus pyralis, UniProt P08659)","enzyme activity, counter-",C3H10T1/2 cell lysate,concentration not given,,luciferase inhibition,no effect
cyclo(GLWFGPRL) (cyclic),"diapause hormone receptor (Helicoverpa zea, UniProt S5LVZ5)","receptor activation, antagonist, aequorin luminescence",CHO-K1 expressing receptor,"1 µM, 30 min preincubation, together with: model ligand at 1 µM",reference: model ligand alone,antagonist activity,18.5%
